Experimental data of several laboratories.
Each numbered part is a random draw from the data of one study; scales do not carry over between parts.

Block 1
Target: Sal-like protein 4, full length isoform A (SALL4, Homo sapiens, UniProt Q9UJQ4, residues 1-1053)
Chain of UniProt Q9UJQ4 (whole entry, looked up): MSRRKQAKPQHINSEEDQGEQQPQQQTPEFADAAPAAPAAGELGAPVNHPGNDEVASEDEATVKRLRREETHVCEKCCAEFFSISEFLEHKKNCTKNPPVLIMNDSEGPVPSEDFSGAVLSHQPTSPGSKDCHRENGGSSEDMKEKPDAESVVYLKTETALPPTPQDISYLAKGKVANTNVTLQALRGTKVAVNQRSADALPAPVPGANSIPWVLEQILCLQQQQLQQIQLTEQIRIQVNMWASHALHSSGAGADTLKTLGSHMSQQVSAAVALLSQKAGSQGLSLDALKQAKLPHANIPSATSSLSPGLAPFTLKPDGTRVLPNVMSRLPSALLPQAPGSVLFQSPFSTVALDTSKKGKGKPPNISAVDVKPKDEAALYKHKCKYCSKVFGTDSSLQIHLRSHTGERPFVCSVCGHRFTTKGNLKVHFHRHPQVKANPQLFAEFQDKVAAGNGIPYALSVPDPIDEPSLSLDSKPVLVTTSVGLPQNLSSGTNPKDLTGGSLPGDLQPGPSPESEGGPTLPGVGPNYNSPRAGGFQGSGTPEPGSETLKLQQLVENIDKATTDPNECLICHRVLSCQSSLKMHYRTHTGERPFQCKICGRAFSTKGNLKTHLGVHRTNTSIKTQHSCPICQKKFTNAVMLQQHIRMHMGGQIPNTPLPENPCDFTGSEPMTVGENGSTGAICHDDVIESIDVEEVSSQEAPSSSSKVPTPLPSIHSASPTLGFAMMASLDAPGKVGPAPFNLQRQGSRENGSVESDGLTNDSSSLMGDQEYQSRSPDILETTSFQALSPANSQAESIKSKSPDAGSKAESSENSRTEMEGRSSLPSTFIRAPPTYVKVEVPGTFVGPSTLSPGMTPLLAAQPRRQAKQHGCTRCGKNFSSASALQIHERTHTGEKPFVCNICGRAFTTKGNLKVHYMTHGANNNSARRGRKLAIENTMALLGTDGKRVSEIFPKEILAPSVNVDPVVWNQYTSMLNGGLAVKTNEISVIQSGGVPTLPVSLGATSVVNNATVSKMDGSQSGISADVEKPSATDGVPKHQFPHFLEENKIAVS
Method: universal PBM
Form: double-stranded DNA, one strand shown
Matrix: in vitro
Concentration: 600 nM
Setting: 8-mer, flanks averaged, mean of replicates
Reading: higher = stronger binding
`AGATTTCA` has an E-score of 0.192.
`GGCCCCGA` gave an E-score of -0.376.
The E-score of `CAGAGCTA` is reported as -0.182.
`ACGGTGAT` has an E-score of -0.0924.

Block 2
Target: Histone acetyltransferase KAT6A, both winged helices, GST fusion (KAT6A, Homo sapiens, UniProt Q92794, residues 1-181)
Method: protein binding microarray
Form: double-stranded DNA, one strand shown
Matrix: in vitro
Concentration: not given
Setting: 8-mer, flanks averaged, mean of 2 arrays, mostly near background
Reference: not given
Reading: higher = stronger binding
Target sequence (chain): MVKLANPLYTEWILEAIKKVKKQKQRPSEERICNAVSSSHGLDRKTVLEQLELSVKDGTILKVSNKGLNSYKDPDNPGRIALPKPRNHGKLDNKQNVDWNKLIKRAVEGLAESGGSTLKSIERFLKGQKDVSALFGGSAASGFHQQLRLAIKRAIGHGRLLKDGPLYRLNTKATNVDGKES
`ATGGTATC` has an E-score of -0.186.
`AAACGCTG` gave an E-score of 0.0281.
For `CGCTCCCC`, the E-score was 0.127.
With `AATATATA` the E-score was 0.0351.

Block 3
Target: Phosphate system positive regulatory protein PHO4, full length, GST-tagged (PHO4, Saccharomyces cerevisiae, UniProt P07270, residues 1-312)
Method: competition protein-binding microarray
Form: double-stranded DNA, one strand shown
Matrix: in vitro
Concentration: 2 µM
Setting: whole 60-bp probe, lowest competitor level
Together with: Cbf1 competitor, 0.05 µM
Reading: higher = stronger binding
Target sequence (chain): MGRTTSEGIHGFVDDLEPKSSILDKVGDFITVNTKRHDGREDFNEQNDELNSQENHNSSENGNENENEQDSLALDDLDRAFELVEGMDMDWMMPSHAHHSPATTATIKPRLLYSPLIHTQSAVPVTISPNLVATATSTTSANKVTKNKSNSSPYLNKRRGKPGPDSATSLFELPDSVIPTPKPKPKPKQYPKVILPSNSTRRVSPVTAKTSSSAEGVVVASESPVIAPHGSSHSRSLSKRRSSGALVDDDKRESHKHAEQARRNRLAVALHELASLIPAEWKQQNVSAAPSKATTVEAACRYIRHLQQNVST
`AACGAAGAAAACGGCCACGTTAAACACTTTGTTAGGGTCTTGATTCGCTTGACGCTGCTG` gave a fluorescence intensity of 7170 a.u.
`CAAACAACAATAATCCACGTGCTTTTCGCGTTTTTTGTCTTGATTCGCTTGACGCTGCTG` has a fluorescence intensity of 17000 a.u.
`ACTCGGGTGTCCTGGCATGTGGGTCCAACAATGGTCGTCTTGATTCGCTTGACGCTGCTG` gave a fluorescence intensity of 10800 a.u.

Further values, each from its own experiment
For `PhoQ, residues 284 288 289 292 302 303 SIHMAM`, the fold induction was 0.67 (PhoP, residues 12 14 15 18 19 NIMAP (Escherichia coli, UniProt P23836); Sort-seq, measured: YFP reporter; E. coli; PhoQ-PhoP variant library, together with: 10 µM Mg2+; reference: high Mg2+ state, higher = stronger signaling).

A few entries again (block 1):
The E-score of `CAGAGCTA` is reported as -0.182.
